Assay results of several laboratories.
Each numbered part is a random draw from the data of one study; scales do not carry over between parts. Changes are numbered by the printed parent chain.

Block 1
Target: CCND1, cyclin fold, Cln2 fusion (human)
Method: yeast growth competition, sequencing
Sample: yeast
Setting: strong parent motif
Relative to: not given
Reading: higher = stronger binding
Measurement: normalised enrichment score
Starting sequence: PKN2 docking peptide (human); VSAVRKLDFSDTM; partner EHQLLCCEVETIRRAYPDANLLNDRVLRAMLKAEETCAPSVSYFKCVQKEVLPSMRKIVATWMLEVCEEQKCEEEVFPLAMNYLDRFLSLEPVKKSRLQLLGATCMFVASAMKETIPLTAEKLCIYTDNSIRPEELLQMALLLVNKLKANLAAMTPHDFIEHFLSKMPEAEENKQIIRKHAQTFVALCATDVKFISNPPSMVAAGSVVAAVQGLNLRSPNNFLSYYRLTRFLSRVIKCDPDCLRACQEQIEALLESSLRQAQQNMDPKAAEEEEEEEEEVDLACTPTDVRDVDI
Substitution = VSAVRKYDFSDTM [L7Y]; value = 0.38
Substitution = VMAVRKLDFSDTM [S2M]; value = 3.24
Substitution = VSAVRKLDFSDNM [T12N]; value = 5.48
Substitution = VSAVRKLDFSDSM [T12S]; value = 5.36
Substitution = VDAVRKLDFSDTM [S2D]; value = 2.33
Substitution = VSAVRKIDFSDTM [L7I]; value = 5.51
Substitution = VSAVRKLFFSDTM [D8F]; value = 1.26
Substitution = VSIVRKLDFSDTM [A3I]; value = 2.54
Substitution = VWAVRKLDFSDTM [S2W]; value = 2.98
Substitution = VSAVRWLDFSDTM [K6W]; value = 2.63
Substitution = VSAVRQLDFSDTM [K6Q]; value = 3.28
Substitution = VSAFRKLDFSDTM [V4F]; value = 1.38
Substitution = VSAVRKLDFSMTM [D11M]; value = 4.13
Substitution = VSAVRKLDGSDTM [F9G]; value = 0.24
Substitution = VSAVRKLDASDTM [F9A]; value = -0.0416
Substitution = VSAVRKEDFSDTM [L7E]; value = 0.148
Substitution = VSSVRKLDFSDTM [A3S]; value = 2.42

Block 2
Target: ABI1, truncated, D143A, DHFR fusion (Arabidopsis thaliana)
Method: DHFR PCA, deep sequencing
Sample: yeast
Setting: methotrexate growth selection, single substitutions
With: (+)-ABA 0.39 µM
Relative to: wild-type fitted maximum
Reading: higher = stronger binding
Measurement: relative binding score
Starting sequence: PYL1, truncated, DHFR fusion (Arabidopsis thaliana); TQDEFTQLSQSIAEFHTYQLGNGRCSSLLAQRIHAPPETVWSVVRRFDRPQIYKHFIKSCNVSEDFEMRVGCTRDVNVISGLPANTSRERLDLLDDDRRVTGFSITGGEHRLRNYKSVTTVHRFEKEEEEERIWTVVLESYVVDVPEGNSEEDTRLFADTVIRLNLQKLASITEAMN
Substitution = E14R; value = 8.26%
Substitution = E130D; value = 61.7%
Substitution = L20Q; value = 51.2%
Substitution = I57R; value = -1.64%
Substitution = G23H; value = 12.3%
Substitution = P83S; value = 19.8%
Substitution = F157S; value = 4.56%
Substitution = S27W; value = -5.66%
Substitution = T73S; value = 16%
Substitution = F47W; value = -5.34%
Substitution = Q7S; value = 42.8%
Substitution = S26P; value = -8.48%
Substitution = T160V; value = -5.74%
Substitution = L94M; value = 16.5%
Substitution = C60I; value = 1.12%

Block 3
Target: RNA binding protein fox-1 homolog 2, RRM domain, GST-SBP tag (RBFOX2, Homo sapiens, UniProt O43251-10, residues 100-194)
Method: RNA Bind-n-Seq
Molecule type: RNA
Sample: in vitro
Tested at: 365 nM
Setting: natural RNA segment, single round, ends assumed
Relative to: no-protein control
Reading: higher = stronger binding
Measurement: RBNS enrichment (R)
All sequences stand within: GGGAGUUCUACAGUCCGACGAUC … UGGAAUUCUCGGGUGCCAA
Construct (chain): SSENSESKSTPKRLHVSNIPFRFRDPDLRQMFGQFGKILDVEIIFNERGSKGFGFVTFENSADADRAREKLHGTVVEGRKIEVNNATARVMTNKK
Sequence = AGGAGUUCGCUCUUGCGUUUCUUCCCCUCCCCAAGAAGGGAGGGGGCUACUUCAGGCCCUUCUGUGUGUUGCCUGGCAGGAUACCUUGUCCAACCAGCUACCCACCUCAA; value = 0.201
Sequence = UGCAUUUGAUUGUAAACUGUACUCGUCCGUGUGGAACUGUACACACCUUAGUUACUUCAUUUGGCUCCGUUGGCUUGUGUUUCUAGGUGAGGAGUUUCCUACCAGUUCAC; value = 0.647
Sequence = AAACACUUCUAGAGCUUUGUGGUCCAAACUCUGGCUCUCCCGUCUGCAAAACAGGAGCCAGCCUGGGCUCUGUGCCUACCUCAAGGGGAGCUGGGGGUUGGGGGGACUGA; value = 0.323
Sequence = GUGGGUGUGUGGAACGGGUCUGCUCUGCCUGCUUCUGUCUCUGUCUGGGUGUUUGAGUUCCAAAAAGUGUGUGGUGUUUGUUCCUCCUCAUCCUCUUCUGAGACUGUUGA; value = 1.01
Sequence = GCUUUUGGUGAGAAGGUGUUGGACAGGGGAUUGGCGCCCCCCUUUGGUUUGGCCUCCAUCCUCAUCUCUCUUGGGCCAAGCCAGCUGCCUAGGUCCCCCAAGCAUGGGGG; value = 0.392
Sequence = GCAAGACAUGAACUGACUAAUUGGUAUCCACUACUUGUACAGCUUACAUAAAUGAGUUGAUGAUAUUUAACCAGUUUUUAUAAACUUCAUUUAGGUCUCUAAACACAGAC; value = 0.278
Sequence = GCAAGAUAACUACUCGUGAGUAUUCAGAAUGUUGUUCCUAAUAAAUGCACUUGUUGUCUGUCUUCUUUAAUCAAAUCACAUCUUAUAUACAGCAGUCAGAGAUGAGUAUA; value = 0.42
Sequence = AGGAUUCCAGGAAGAGGCCAUGUCUGUGCAGUCCUAGUUCCAGACAGGUGAGAAGCUCCAGGAACUACUGGCUACCUUGACAAGCUGGGUAAAUAGUUAUCAUUCUGGGU; value = 0.572

Further values, each from its own experiment
Molecule = PhoQ, residues 284 288 289 292 302 303 ALSMDL; target = PhoP, residues 12 14 15 18 19 IFFTR (Escherichia coli, UniProt P23836); assay = Sort-seq, measured: YFP reporter; system = E. coli; setting = PhoQ-PhoP variant library, with: 10 µM Mg2+; scale = relative to: high Mg2+ state, higher = stronger signaling; measurement = fold induction; value = 2.28
